Published values gathered from unrelated publications.
Lines come from different studies, so protocols differ. Numbers after ± are the reported error.
Organism: Plasmodium falciparum

Structure (SMILES)	assay	test system	setting	measurement	value
Cc1cc(N2CCC(CO)(C3CC3)C2=O)cc(C(=O)NCc2cc(F)cc(-c3cnn(C)c3)c2)n1 (stereo not shown)	parasite growth	conditional knockdown control line	120 h, together with: 12.5 nM anhydrotetracycline	IC50	201 nM
Oc1ccc(-c2ccc(O)c3ccccc23)c2c1C=NCC2	asexual parasite proliferation, SYBR Green I fluorescence	K1	–	IC50	1620 ± 440 nM
Cc1cc(N2CC[C@@](C#N)(C3CC3)C2=O)cc(NC(=O)Cc2ccccc2)n1	parasite growth	cPRS conditional knockdown line	72 h, together with: 50 nM anhydrotetracycline	IC50	11 nM
COc1cccc2c(-c3ccc(O)c4c3CCNC4)ccc(O)c12	asexual parasite proliferation, SYBR Green I fluorescence	Dd2	–	IC50	408 ± 77 nM
CC(C)(C)NC(=O)CC(NC(=O)CCc1ccccc1)C(=O)NCCNC(=O)c1cccc(-c2ccccc2)c1 (stereo not shown)	parasite growth	NF54	72 h, gametocyte	EC50	31.6 nM
COc1cccc2c(-c3ccc(O)c4c3C[C@@H](C)N[C@@H]4C)c(C)cc(O)c12	asexual parasite proliferation, SYBR Green I fluorescence	clinical isolate SB_05, Mozambique	–	IC50	19.8 ± 2.3 nM
CCC1(CC)CC(=O)N(C2c3cc(C(=O)NC4c5ccccc5CC4O)ccc3OC2(C)COC)C(=N)N1 (stereo not shown)	–	reversion line	6 months without drug	EC50	3.33 nM
COc1cc(O)c(-c2cc(-c3cc(-c4c(O)cc(OC)c5c4C[C@@H](C)N[C@@H]5C)c4cc(C)cc(OC)c4c3O)c(O)c3c(OC)cc(C)cc23)c2c1[C@@H](C)N[C@H](C)C2	asexual parasite proliferation, SYBR Green I fluorescence	Dd2	–	IC50	82 ± 10 nM
COc1cncc(-c2cc(F)cc(CNC(=O)c3cc(N4CC[C@@](C#N)(C5CC5)C4=O)cc(C)n3)c2)c1	parasite growth	cPRS conditional knockdown line	72 h, together with: 50 nM anhydrotetracycline	IC50	48 nM
CCC1(CC)CC(=O)N(C2CCOc3ccc(C(=O)NC4CC(C)(C)Oc5ccccc54)cc32)C(=N)N1 (stereo not shown)	–	3D7	10 × EC50, 120 h, 99% clearance	parasite clearance time	53.8 h
CC(C)(C)NC(=O)CC(NC(=O)CCc1ccccc1)C(=O)NCCNC(=O)c1cccc2ccccc12 (stereo not shown)	parasite growth, SYBR Green	3D7	72 h, blood stage	EC50	23 nM
CCc1nc(N)nc(N)c1-c1ccc(Cl)cc1	–	3D7	10 × EC50, 120 h	log PRR	3.23
CC1=N[C@H](C)Cc2c(-c3ccc4ccccc4c3)ccc(O)c21	asexual parasite proliferation, SYBR Green I fluorescence	HB3	–	IC50	893 ± 9 nM
N#Cc1cc(NC(=O)C2c3ccccc3C(=O)N(CC(F)(F)F)C2c2ccc[n+]([O-])c2)ccc1F (stereo not shown)	parasite growth	–	–	EC50	> 10000 nM
Cc1cc(C(=O)N[C@@H](CC(=O)NC(C)(C)C)C(=O)NCCNC(=O)c2cccc(-n3cccn3)c2)no1	–	chloroquine-resistant, human, ex vivo field isolate	–	EC50	23 nM
CC1=N[C@H](C)Cc2c(-c3ccc(C)cc3)ccc(O)c21	asexual parasite growth, SYBR Green I	clinical isolate SB_04, Malawi	–	IC50	808 ± 23 nM
Cc1cc(C(=O)N[C@@H](CC(=O)NC(C)(C)C)C(=O)NCCNC(=O)c2cccc(-c3ccn[nH]3)c2)no1	male gamete activation	NF54	48 h	EC50	240 nM
COCCN(C)CC(=O)NC(Cc1ccc(-c2ccccc2)cc1)B(O)O (stereo not shown)	liver schizont development	primary human hepatocytes, NF54	96 h	IC50	120 nM
CCN(CC)CCCC(C)Nc1ccnc2cc(Cl)ccc12 (stereo not shown)	parasite growth	–	72 h, blood stage	EC50	26.9 nM
Cc1cc(C(=O)N[C@@H](CC(=O)NC(C)(C)C)C(=O)NCCNC(=O)c2cc(-c3ccccc3)ccn2)no1	parasite growth	NF54	24 h, gametocyte	EC50	501 nM
CCNCC#CCNc1ccnc2cc(Cl)ccc12	parasite growth, SYBR Green I	3D7	mean of experiments	IC50	34.1 nM
COc1cc2[nH]c(C)c(-c3ccc(Oc4ccc(OC(F)(F)F)cc4)cc3)c(=O)c2cc1Cl	parasite growth	3D7	blood stage	EC50	17.8 nM
